Experimental data from different studies.
Compare with care: the assays were run in different laboratories. Numbers after ± are the reported error.

SMILES | cell line | assay | setting | IC50
C[C@H](c1ccccc1)N1C(=O)C2=Nc3ccc(Cl)cc3CN2C1=S | CEM/ADR5000 (P-gp overexpressing, multidrug resistant) | cell viability, resazurin | 72 h | 295 ± 83 nM
COC(=O)N1c2ccc3c(nc(Cc4ccccc4)n3[C@@H]3CCC[C@@H](C(=O)O)C3)c2CC[C@@H]1C | HCC1954 | cell growth or viability, ATP luminescence | 10 days | 2100 nM
C=CC(=O)NCCCCCCOCc1cn(CCCCCCNC(=O)C=C)n[n+]1C | L929 | viability, alamarBlue | 3 days | > 50000 nM
CC(C)c1ccc(N(C)c2ccc3c(c2)OCC[C@H]3CNc2cnccc2C(=O)O)cc1 | NCI-H716 | cell growth or viability, ATP luminescence | 7 days | 9.51 nM
Cc1ccccc1/C=C/C(=O)N[C@@H](CO)C(=O)N[C@H](C(=O)N[C@H](Cc1ccccc1)C(=O)O)[C@@H](C)O | SK-HEP1 | – | – | > 20000 nM
Nc1ncnc2c1ncn2CCN1C(=O)/C(=N\N=C2/NC(=O)CS2)c2cc(F)ccc21 | BALB/3T3 clone A31 | cell growth or viability, SRB | 72 h | 54.7 µg/mL
COc1ccc2c(c1)CN1C(=S)N([C@H](C)c3ccccc3)C(=O)C1=N2 | CEM/ADR5000 (P-gp overexpressing, multidrug resistant) | cell viability, resazurin | 72 h | 1330 ± 247 nM
Cn1ncc(-c2ccc3c(=O)[nH]nc(CN)c3c2)c1-c1c(F)c(Cl)cc(OC2CC2)c1C#N | NCI-H3122 | cell viability, inhibitor, CellTiter-Glo | 120 h, baseline-subtracted | 160 nM
C=C(C)C(=O)NCCCCCCCCCCOCc1cn(CCCCCCCCCCNC(=O)C(=C)C)nn1 | L929 | viability, alamarBlue | 3 days | > 50000 nM
CN1CCC(N[C@@H]2CCc3[nH]c4c(C(N)=O)ccc(-c5ccccc5Cl)c4c3C2)CC1 | RBE | cell growth or viability | – | 0.22 nM
C=C(C)C(=O)NCCCCCCOCc1cn(CCCCCCNC(=O)C(=C)C)nn1 | L929 | viability, alamarBlue | 3 days | > 50000 nM
CNS(=O)(=O)Nc1nccc(Cc2c(C)c3ccc(Oc4ncccc4F)cc3oc2=O)c1F | OAW-28 | cell viability | 7 days | 11.4 nM
CCOc1cncc(-c2ccc(NC(=O)C3(c4ccnc(NS(=O)(=O)C5CC5)n4)CCOCC3)nc2)n1 | SNU-475 | cell proliferation, CellTiter-Glo | 72 h | 10000 nM
O=C1C=CC(=O)N1CCCCOCc1cn(CCCCN2C(=O)C=CC2=O)nn1 | L929 | cell growth or viability | 72 h | 2200 nM
C[C@H](c1ccccc1)N1C(=O)C2=Nc3ccc(Br)cc3CN2C1=S | CEM/ADR5000 (P-gp overexpressing, multidrug resistant) | cell viability, resazurin | 72 h | 409 ± 28 nM
O=C(NS(=O)(=O)c1cccs1)c1cc2ccccc2n1Cc1ccc(Br)c2ccccc12 | mouse BMDM | IL-1β release, inhibitor, ELISA | LPS-stimulated | 2610 nM
